Measurements pooled from the literature.
Each line is one published result; not all experiments were run side by side. “And” joins repeats or separate records; there may be more than shown. ± gives the spread as reported. Converted amounts (≈) assume the structure as drawn.
TDP1: Tyrosyl-DNA phosphodiesterase 1 (TDP1, Homo sapiens, UniProt Q9NUW8)
Sequence of UniProt Q9NUW8 (whole entry, looked up): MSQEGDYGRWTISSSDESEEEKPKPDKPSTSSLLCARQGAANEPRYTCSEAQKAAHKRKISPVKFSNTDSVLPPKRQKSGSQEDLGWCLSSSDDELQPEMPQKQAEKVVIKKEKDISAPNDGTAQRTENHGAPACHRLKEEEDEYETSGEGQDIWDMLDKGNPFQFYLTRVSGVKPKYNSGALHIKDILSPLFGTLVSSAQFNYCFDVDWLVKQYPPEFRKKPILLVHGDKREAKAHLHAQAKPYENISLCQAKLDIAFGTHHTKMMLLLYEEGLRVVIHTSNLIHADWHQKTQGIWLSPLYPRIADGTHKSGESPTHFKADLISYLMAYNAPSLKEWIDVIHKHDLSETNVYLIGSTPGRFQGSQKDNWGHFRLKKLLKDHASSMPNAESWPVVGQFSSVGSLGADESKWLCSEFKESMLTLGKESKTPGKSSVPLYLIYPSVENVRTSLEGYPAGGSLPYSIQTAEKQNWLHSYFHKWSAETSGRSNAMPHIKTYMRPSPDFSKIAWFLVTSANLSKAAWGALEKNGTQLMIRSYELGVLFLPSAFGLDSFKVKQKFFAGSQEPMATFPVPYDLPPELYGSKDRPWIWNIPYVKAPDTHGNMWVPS
Sequence of UniProt P0A7A9 (whole entry, looked up): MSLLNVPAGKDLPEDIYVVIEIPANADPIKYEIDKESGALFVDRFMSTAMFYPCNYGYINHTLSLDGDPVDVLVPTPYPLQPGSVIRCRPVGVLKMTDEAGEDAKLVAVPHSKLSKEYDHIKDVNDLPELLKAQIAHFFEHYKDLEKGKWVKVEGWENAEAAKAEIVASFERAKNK

Structure (SMILES) = CCCCC(CC)COC(=O)CC(C(=O)OCC(CC)CCCC)S(=O)(=O)O.COC(=O)Nc1nc2cc(C(=O)c3ccccc3)ccc2[nH]1 (stereo not drawn); tested on = Cryptococcus neoformans var. grubii; test = EUCAST broth microdilution; test system = KN99α reference strain; conditions = 72 h, 37 °C, RPMI with 2% glucose; endpoint = IC90; result = 1.25 µM
Structure (SMILES) = COc1ccc(OC)c(C2=Nn3c(nnc3-c3ccc(C)cc3)SC2)c1; tested on = Inorganic pyrophosphatase (ppa, Escherichia coli, UniProt P0A7A9); test = enzyme activity, inhibitor; endpoint = IC50; result = 293 µM
Structure (SMILES) = CC(=O)O[C@@H]1[C@@H](OC(C)=O)[C@H](Sc2sc(C(=O)c3ccc(Cl)cc3)c(N)c2-c2nc3ccccc3s2)OC[C@H]1OC(C)=O; tested on = coxsackievirus B4; test = plaque reduction; conditions = non-toxic concentration; endpoint = viral titre reduction; result = 20%
Structure (SMILES) = CN(Cc1ccc(C2(C(F)(F)F)CCC2)cc1)Cc1cccc2ccccc12; tested on = Trichophyton rubrum; test = microbial growth, disc diffusion; test system = ATCC28188; conditions = 0.032 µg/mL, 6 days; endpoint = inhibition zone; result = 34.2 mm
Structure (SMILES) = C=C[C@]1(C)C[C@@H](OC(=O)CSc2ccc(NC(=O)c3ccco3)cc2)[C@]2(C)[C@H](C)CC[C@]3(CCC(=O)[C@H]32)[C@@H](C)[C@@H]1O; tested on = Mycoplasma gallisepticum; test system = infected chickens; conditions = intramuscular, 10 mg/kg daily x3, scale 0 to 4; scale = direction not given; endpoint = air sac lesion score; result = 3 and 1 and 2
Structure (SMILES) = CC(=O)OC[C@H]1O[C@@H](Sc2sc(C(=O)c3ccc(Br)cc3)c(N)c2-c2nc3ccccc3s2)[C@H](OC(C)=O)[C@@H](OC(C)=O)[C@H]1OC(C)=O; tested on = coxsackievirus B4; test = plaque reduction; conditions = non-toxic concentration; endpoint = viral titre reduction; result = 40%
Structure (SMILES) = C[C@@H]1C(=O)O[C@@H](C)/C=C/C=C\[C@@H](C)[C@@H]2C=C[C@@H]3C[C@@]4(C)O[C@H]4[C@@H](C)[C@H]3[C@@H]2C(=O)C(Cl)(Cl)C1=O; tested on = Staphylococcus aureus; test system = MSSA and MRSA clinical isolates; conditions = 180 isolates; endpoint = MIC90; result = 0.1 µg/mL (≈ 0.202 µM)
Structure (SMILES) = Cc1cc(C(=O)Nc2nc3cccc(C)c3n2[C@H]2CCCCN(C(=O)/C=C/CN(C)C)C2)ccn1; tested on = Trypanosoma brucei brucei; test system = Lister 427; conditions = 50 µM, 0 h, kill kinetics; endpoint = proliferation; result = 100%
Structure (SMILES) = CC(=O)O[C@@H]1[C@@H](OC(C)=O)[C@H](Sc2sc(C(=O)c3ccc(C)cc3)c(N)c2-c2nc3ccccc3s2)OC[C@H]1OC(C)=O; tested on = coxsackievirus B4; test = plaque reduction; conditions = non-toxic concentration; endpoint = viral titre reduction; result = 20%
Structure (SMILES) = Nc1nc(-c2ccccc2)nc2[nH]nc(Nc3cccnc3)c12; tested on = rhinovirus A2; test = viral cytopathic effect; test system = HeLa; endpoint = IC50; result = 55.7 µM
Structure (SMILES) = Nc1c(C(=O)c2ccc(Br)cc2)sc(S)c1-c1nc2ccccc2s1; tested on = coxsackievirus B4; test = plaque reduction; conditions = non-toxic dose NG, mean over three titres; endpoint = viral reduction; result = 33.3%
Structure (SMILES) = CO[C@@H]1[C@@H](OC)[C@H]2O[C@H]3[C@H](OC)[C@@H](OC)[C@@H](O[C@H]4[C@H](OC)[C@@H](OC)[C@@H](O[C@H]5[C@H](OC)[C@@H](OC)[C@@H](O[C@H]6[C@H](OC)[C@@H](OC)[C@@H](O[C@H]7[C@H](OC)[C@@H](OC)[C@@H](O[C@H]8[C@H](OC)[C@@H](OC)[C@@H](O[C@@H]1[C@@H](Cn1cc(CCCC(=O)N[C@H]9CCOC9=O)nn1)O2)O[C@@H]8Cn1cc(CCCC(=O)N[C@H]2CCOC2=O)nn1)O[C@@H]7Cn1cc(CCCC(=O)N[C@H]2CCOC2=O)nn1)O[C@@H]6Cn1cc(CCCC(=O)N[C@H]2CCOC2=O)nn1)O[C@@H]5Cn1cc(CCCC(=O)N[C@H]2CCOC2=O)nn1)O[C@@H]4Cn1cc(CCCC(=O)N[C@H]2CCOC2=O)nn1)O[C@@H]3Cn1cc(CCCC(=O)N[C@H]2CCOC2=O)nn1; tested on = Escherichia coli; test = LuxR reporter, antagonist; test system = DH5α sensor strain; conditions = 4 µM, with: OHHL 200 nM; endpoint = inhibition; result = 19 ± 1%
Structure (SMILES) = CC=C(C)C(=O)OC1CC2C(C=C(C)C3C(OC(C)=O)CC(=O)C13C)OC(=O)C2C (stereo not drawn); tested on = Helicobacter pylori; test = microbial growth, broth dilution; conditions = 1.95 µg/mL; endpoint = inhibition; result = 0%
Structure (SMILES) = CCCCCCCCn1cc[n+](CCCCCCCCCCOc2cc(OCCCCCCCCCC[n+]3ccn(CCCCCCCC)c3)cc(OCCCCCCCCCC[n+]3ccn(CCCCCCCC)c3)c2)c1.[Br-].[Br-].[Br-]; tested on = Enterococcus faecalis; test system = OG1RF; endpoint = MIC; result = 16 µM
Structure (SMILES) = COc1ccc(Nc2n[nH]c3nc(-c4ccccc4)nc(N)c23)cc1; tested on = rhinovirus A2; test = viral cytopathic effect; test system = HeLa; endpoint = IC50; result = 17.2 µM
Structure (SMILES) = CC(=O)OC[C@H]1O[C@@H](Sc2sc(C(=O)c3ccc(Cl)cc3)c(N)c2-c2nc3ccccc3s2)[C@H](OC(C)=O)[C@@H](OC(C)=O)[C@H]1OC(C)=O; tested on = coxsackievirus B4; test = plaque reduction; conditions = non-toxic dose NG, mean over three titres; endpoint = viral reduction; result = 23.3%
Structure (SMILES) = CO[C@@H]1[C@@H](OC)[C@H]2O[C@H]3[C@H](OC)[C@@H](OC)[C@@H](O[C@H]4[C@H](OC)[C@@H](OC)[C@@H](O[C@H]5[C@H](OC)[C@@H](OC)[C@@H](O[C@H]6[C@H](OC)[C@@H](OC)[C@@H](O[C@H]7[C@H](OC)[C@@H](OC)[C@@H](O[C@@H]1[C@@H](Cn1cc(CCCC(=O)N[C@H]8CCOC8=O)nn1)O2)O[C@@H]7Cn1cc(CCCC(=O)N[C@H]2CCOC2=O)nn1)O[C@@H]6Cn1cc(CCCC(=O)N[C@H]2CCOC2=O)nn1)O[C@@H]5Cn1cc(CCCC(=O)N[C@H]2CCOC2=O)nn1)O[C@@H]4Cn1cc(CCCC(=O)N[C@H]2CCOC2=O)nn1)O[C@@H]3Cn1cc(CCCC(=O)N[C@H]2CCOC2=O)nn1; tested on = Escherichia coli; test = LuxR reporter, antagonist; test system = DH5α sensor strain; conditions = 40 µM, with: OHHL 200 nM; endpoint = inhibition; result = 16 ± 4%
Structure (SMILES) = Cc1ccc(S(=O)(=O)Nn2c3c(cc(-c4nc5ccccc5s4)c2=O)CCCCCC3)cc1; tested on = coxsackievirus B4; test = viral replication, plaque; test system = BGM; conditions = non-toxic dose, mean of three titres; endpoint = plaque reduction; result = 60%
Structure (SMILES) = Nc1nc(-c2ccccc2)nc2[nH]nc(Nc3ccc([N+](=O)[O-])cc3)c12; tested on = rhinovirus A2; test = viral cytopathic effect; test system = HeLa; endpoint = IC50; result = 31.7 µM
Structure (SMILES) = CO[C@@H]1OC[C@@H](O)[C@H](O)[C@H]1O; tested on = Helicobacter pylori; test = microbial growth, broth dilution; conditions = 125 µg/mL; endpoint = inhibition; result = 42.2%
Structure (SMILES) = O=C(O)c1ccc(Nc2c(-c3ccc(CON=Cc4ccc(CN5C(=O)c6ccccc6C5=O)o4)cc3)nc3cc(-c4ccccc4)ccn23)cc1 (mixture of isomers); tested on = TDP1; test = enzyme activity, inhibitor; conditions = 100 µM, unpurified compound; endpoint = inhibition; result = 87.6%
Structure (SMILES) = O=c1c(-c2nc3ccccc3s2)cc2c(n1NS(=O)(=O)c1ccccc1)CCCCCC2; tested on = human adenovirus 7; test = viral replication, plaque; test system = HEp-2; conditions = non-toxic dose, mean of three titres; endpoint = plaque reduction; result = 0%
Structure (SMILES) = CC(C)[C@@H]1NC(=O)[C@@H](CCCNC(=N)N)NC(=O)[C@H]([C@@H](C)O)NC(=O)[C@@H](CCCN)NC(=O)[C@H](Cc2ccc(F)cc2)NC(=O)[C@@H](Cc2ccccc2)NC1=O; tested on = Balamuthia mandrillaris; test = parasite growth, ATP luminescence; endpoint = IC90; result = 12.5 µM
Structure (SMILES) = CC(=O)O[C@@H]1[C@@H](OC(C)=O)[C@H](Sc2sc(C(=O)c3ccc(Br)cc3)c(N)c2-c2nc3ccccc3s2)OC[C@H]1OC(C)=O; tested on = coxsackievirus B4; test = plaque reduction; conditions = non-toxic concentration; endpoint = viral titre reduction; result = 60%
Structure (SMILES) = Nc1nc(-c2ccccc2)nc2[nH]nc(Nc3c(F)cc(F)cc3F)c12; tested on = rhinovirus A2; test = viral cytopathic effect; test system = HeLa; endpoint = IC50; result = 13.5 µM
Structure (SMILES) = C=C(NC(=O)c1csc(-c2nc3c(cc2O)-c2nc(cs2)C(=O)NC(C(C)O)C(=O)NC(=C(C)OC)c2nc(cs2)C(=O)NC2c4nc(cs4)C(=O)NC(COC(=O)c4c5c6c(cccc6n4O)COC(=O)C(OC4CC(C)(O)C(N(C)C)C(C)O4)C2OC5)c2nc-3cs2)n1)C(N)=O (stereo not drawn); tested on = Staphylococcus epidermidis; test system = methicillin-resistant, 10 isolates; conditions = pH 8.5; endpoint = MIC50; result = 0.0156 µg/mL (≈ 0.0109 µM)
Structure (SMILES) = COc1cccc(NC(=O)N2CCOc3ccccc32)c1; tested on = Uncharacterized protein (Trypanosoma brucei brucei, UniProt Q386Q8); test = enzyme activity, inhibitor, coupled colorimetric; conditions = with: E. coli pyrophosphatase coupling; endpoint = IC50; result = 77.8 µM
Structure (SMILES) = Cc1nc(C)c2c(C)c(C=NOCc3ccc(-c4nc5cc(-c6ccccc6)ccn5c4Nc4ccc(C(=O)O)cc4)cc3)sc2n1 (mixture of isomers); tested on = TDP1; test = enzyme activity, inhibitor; conditions = 100 µM, unpurified compound; endpoint = inhibition; result = 95.7%
Structure (SMILES) = CC(C)C1=CC2=CCC3C(C)(C(=O)OCCC[N+](C)(C)C)CCCC3(C)C2CC1 (stereo not drawn); tested on = Escherichia coli; test = microbial growth, disc diffusion; test system = ATCC25922; conditions = 31.2 µg/disc, 24 h; endpoint = inhibition zone; result = 9 mm
Structure (SMILES) = CCCCCCCC[N+](C)(C)CCCCCCCCOc1cc(OCCCCCCCC[N+](C)(C)CCCCCCCC)cc(OCCCCCCCC[N+](C)(C)CCCCCCCC)c1.[Br-].[Br-].[Br-]; tested on = Enterococcus faecalis; test system = OG1RF; endpoint = MIC; result = 1 µM
Structure (SMILES) = Cc1ccc(Nc2n[nH]c3nc(-c4ccc(F)cc4)nc(N)c23)cc1; tested on = rhinovirus A2; test = viral cytopathic effect; test system = HeLa; endpoint = IC50; result = 13.5 µM
Structure (SMILES) = Cc1cccc2c1N(C(=O)n1ccnn1)CC2; tested on = Arabidopsis thaliana; test system = kai2 mutant, seeds; conditions = 30 µM, 72 h; endpoint = germination rate; result = 80% and 61.1% and 52% and 69.7% and 53.5% and 50.9%
Structure (SMILES) = C/C=C(/C)C(=O)O[C@@H]1C=C(C)CC[C@]2(O)[C@@H](C(C)C)CC(=O)[C@]12C; tested on = Helicobacter pylori; test = microbial growth, broth dilution; conditions = 1.95 µg/mL; endpoint = inhibition; result = 0%
Structure (SMILES) = CC(C)(C)NCC(SS(=O)(=O)O)c1ccccc1 (stereo not drawn); tested on = Schistosoma mansoni; test = perfusion day 44; test system = infected Swiss Webster mice; conditions = 600 mg/kg single dose, 1056 h, dosed day 1 post-infection; scale = baseline: vehicle control; endpoint = spleen weight decrease; result = 26%
Structure (SMILES) = CNCc1ccc2c(c1)N(C(=O)OCc1c(F)c(F)c(F)c(F)c1F)[C@H](CNC(=N)N)[C@H]2NC(=O)C(=O)Nc1ccc(Cl)c(F)c1; tested on = Human immunodeficiency virus 1; test = viral infection, Env pseudovirus; test system = TZM-bl, 620345.c01 CRF01_AE; endpoint = IC80; result = 55.7 µM
Structure (SMILES) = Fc1ccc2c(c1)c1nc3ccc(Br)cc3c-1cn2Cc1cn(-c2ccccc2I)nn1; tested on = Giardia duodenalis; test = UHPLC-Q-TOF-MS, refers to: PC(O-14:0/2:0); test system = trophozoites; conditions = IC50, 0.1363 h; scale = baseline: 0.25% DMSO; endpoint = fold change; result = 2.23

Excerpt of the above:
Structure (SMILES) = O=c1c(-c2nc3ccccc3s2)cc2c(n1NS(=O)(=O)c1ccccc1)CCCCCC2; tested on = human adenovirus 7; test = viral replication, plaque; test system = HEp-2; conditions = non-toxic dose, mean of three titres; endpoint = plaque reduction; result = 0%
Structure (SMILES) = CC(C)[C@@H]1NC(=O)[C@@H](CCCNC(=N)N)NC(=O)[C@H]([C@@H](C)O)NC(=O)[C@@H](CCCN)NC(=O)[C@H](Cc2ccc(F)cc2)NC(=O)[C@@H](Cc2ccccc2)NC1=O; tested on = Balamuthia mandrillaris; test = parasite growth, ATP luminescence; endpoint = IC90; result = 12.5 µM
Structure (SMILES) = CC(=O)O[C@@H]1[C@@H](OC(C)=O)[C@H](Sc2sc(C(=O)c3ccc(Br)cc3)c(N)c2-c2nc3ccccc3s2)OC[C@H]1OC(C)=O; tested on = coxsackievirus B4; test = plaque reduction; conditions = non-toxic concentration; endpoint = viral titre reduction; result = 60%
Structure (SMILES) = Nc1nc(-c2ccccc2)nc2[nH]nc(Nc3c(F)cc(F)cc3F)c12; tested on = rhinovirus A2; test = viral cytopathic effect; test system = HeLa; endpoint = IC50; result = 13.5 µM
